Published values of several laboratories.
Organism: Trypanosoma brucei
Observed: parasite growth

Compound | method | strain | time | endpoint | result
CCc1ccc(Oc2nccc(-c3c(-c4ccc(F)cc4)ncn3C3CCNCC3)n2)cc1 |  |  |  | EC50 | 2000 nM
CN1CCN(c2cccc(-c3ccc4ncnc(Nc5ccc(Cl)c(C(F)(F)F)c5)c4c3)c2)CC1 | SYBR Green |  | 48 h | GI50 | 300 nM
Cc1cnc(CNC(=O)c2c(=O)c3ccc(N4CCCN(C)CC4)nc3n3c2sc2ccccc23)cn1 | resazurin |  |  | EC90 | 190 nM
Cc1cc(C)c(C#N)c(SCc2ccccc2)n1 | resazurin |  |  | EC50 | 41000 nM
C[C@H]1CN(c2cccc(-c3ccc4ncnc(Nc5ncco5)c4c3)c2)CCO1 | SYBR Green |  | 48 h | GI50 | 230 nM
O=C1Nc2ccc(-c3cccnc3)cc2C1=Cc1cc(Br)c(O)c(Br)c1 |  |  |  | EC50 | 2000 nM
CC(=O)Oc1ccccc1C(=O)CSc1nc(C)cc(C)c1C#N | resazurin |  |  | EC50 | 30100 nM
CCn1cc(-c2ccnc3[nH]ccc23)c(-c2cccc(NC(=O)Nc3ccc(OCc4ccccc4)cc3)c2)n1 |  |  |  | EC50 | 501 nM
Clc1ccc(Nc2ncnc3ccc(-c4cccc(N5CCOCC5)c4)cc23)cc1 | SYBR Green |  | 48 h | GI50 | 110 nM
CCc1cc(Nc2nccc(-c3c(-c4ccc(OC)c(C(=O)Nc5c(F)cccc5F)c4)nc4ccccn34)n2)c(OC)cc1N1CCC(N2CCN(S(C)(=O)=O)CC2)CC1 |  |  |  | EC50 | 1380 nM
c1cc(-c2ccc3ncnc(Nc4ncco4)c3c2)nc(N2CCOCC2)c1 | SYBR Green |  |  | GI50 | 1900 nM
Cc1cc(C)c(C#N)c(SCC(N)c2ccccc2)n1 (stereo not drawn) | resazurin | RHODESIENSE |  | EC50 | 14600 nM
Cc1ccc(Nc2ncnc3ccc(-c4cccc(N5CCOCC5)c4)cc23)cc1 | SYBR Green |  | 48 h | GI50 | 480 nM
COc1cc(C)c(NC(=O)CN(C)C)cc1Nc1nc(Nc2cccc(F)c2C(N)=O)c2cc[nH]c2n1 |  |  |  | EC50 | 1580 nM
Cc1cc(C)c(C#N)c(SCC(=O)c2ccsc2)n1 | resazurin | RHODESIENSE |  | EC50 | > 64000 nM
C[n+]1cc(NC(=O)c2ccc3ccc4ccc(C(=O)Nc5cc6ccccc6[n+](C)c5)nc4c3n2)cc2ccccc21 | resazurin |  |  | EC50 | 360 nM
Cc1cc(C)c(C(N)=O)c(SCC(=O)c2ccc(F)cc2)n1 | resazurin |  |  | EC50 | 45000 nM
CCn1c(-c2nonc2N)nc2c(C#CC(C)(C)O)nc(O[C@@H](CN)c3ccccc3)cc21 |  |  |  | EC50 | 126 nM
CN1CCN(c2cccc(-c3ccc4ncnc(Nc5ccc([N+](=O)[O-])c(C(F)(F)F)c5)c4c3)c2)CC1 | SYBR Green |  | 48 h | GI50 | 31 nM
CCc1ccc(C(=O)CSc2nc(C)cc(C)c2C#N)cc1 | resazurin |  |  | EC50 | > 64000 nM
CN1CCC(n2cnc(-c3ccc(F)cc3)c2-c2ccnc(NCCO)n2)CC1 |  |  |  | EC50 | 1580 nM
CN(C)CCNC(=O)c1cccn2c(=O)c3cc4ccccc4cc3nc12 | resazurin |  |  | EC50 | 110 nM
COc1ccc(C(=O)CSc2[nH]c(=O)cc(C(F)(F)F)c2C#N)cc1 | resazurin | RHODESIENSE |  | EC50 | 22100 nM
Clc1ccc(Nc2ncnc3ccc(-c4cccc(N5CCOCC5)c4)cc23)cc1Cl | SYBR Green |  | 48 h | GI50 | 41 nM
Cc1cc(C)c(C#N)c(SCC(=O)c2cccs2)n1 | resazurin |  |  | EC50 | > 64000 nM
CC(C)COC(=O)c1ccc2c(c1)/C(=C/Nc1ccc(S(N)(=O)=O)cc1)C(=O)N2 |  |  |  | EC50 | 251 nM
c1cc(-c2ccc3ncnc(Nc4ncco4)c3c2)cc(N2CC3(COC3)C2)c1 | SYBR Green |  | 48 h | GI50 | 870 nM

Some of these lines once more:
Compound | method | strain | time | endpoint | result
CCc1ccc(Oc2nccc(-c3c(-c4ccc(F)cc4)ncn3C3CCNCC3)n2)cc1 |  |  |  | EC50 | 2000 nM
CN1CCN(c2cccc(-c3ccc4ncnc(Nc5ccc(Cl)c(C(F)(F)F)c5)c4c3)c2)CC1 | SYBR Green |  | 48 h | GI50 | 300 nM
